Experimental data of several laboratories.
Numbered parts are unrelated; each lists some results of a single study.

Sample 1 — technique: protein-binding microarray; molecule type: double-stranded DNA, one strand shown; sample: in vitro; concentration: 2200 nM top; setting: 60-bp whole probe; with: salmon DNA 0.4 mg/ml; relative to: random background probes; reading: higher = stronger binding; constant ends, left off below: GCCTAGCAC … GTCTTGATTCGCTTGACGCTGCTG
Target: Interferon regulatory factor 7, full length, phosphomimetic (IRF7, Homo sapiens, UniProt Q92985, residues 1-503, S471D/S472D/S475D/S476D/S477D/S483D/S484D/S487D)
Target sequence (chain): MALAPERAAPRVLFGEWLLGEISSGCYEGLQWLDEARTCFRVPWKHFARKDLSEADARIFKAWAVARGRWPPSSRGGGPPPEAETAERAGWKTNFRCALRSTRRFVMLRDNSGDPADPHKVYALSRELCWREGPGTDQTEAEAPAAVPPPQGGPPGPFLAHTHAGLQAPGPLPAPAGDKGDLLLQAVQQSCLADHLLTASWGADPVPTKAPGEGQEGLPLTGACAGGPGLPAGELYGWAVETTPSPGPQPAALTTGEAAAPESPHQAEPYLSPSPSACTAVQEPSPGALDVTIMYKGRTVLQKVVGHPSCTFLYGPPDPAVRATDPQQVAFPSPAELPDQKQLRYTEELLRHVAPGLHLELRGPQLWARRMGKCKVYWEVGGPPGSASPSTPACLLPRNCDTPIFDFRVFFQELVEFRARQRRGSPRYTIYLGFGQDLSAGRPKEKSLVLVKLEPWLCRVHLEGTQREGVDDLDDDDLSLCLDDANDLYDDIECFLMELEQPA
Sequence	fitted relative affinity [z-score]
ATCTTCATGAAATTTTAATAAGTGCTA	-0.458
TCAAACATCATTGTCATACTGTGCTAG	0.258
TTAGGTTCCCTTATCCTTTAGTGCTAG	1.46
TCAAATTTTGTCATCTAACTGTGCTAG	0.233
GATGGTTTCGGTATCGGGACGTGCTAG	8.07
ATTTTTTTATCAATCATTTTGTGCTAG	0.878
GACGATATCAGACTAGAGACGTGCTAG	-0.0261
GCTTTTATGGTATTTTTTTCGTGCTAG	1.81
TTAGATCTCAGTCCCGATTAGTGCTAG	0.596
TTAGGTCGCCTACTGCTTTAGTGCTAG	0.319
CACGAACTGAGACTGGAGACGTGCTAG	-0.24
TAAGGTATCGGGTTTCGGTTAGTGCTA	3.82
GACGGACAGGACTTTCGGGACGTGCTA	1.94
TTAGATCTCACTCTCGATTAGTGCTAG	0.876
TTAGTTATCGACTATCGGTTAGTGCTA	0.827
TCAGATCTGCCGTCCCACACTGTGCTA	1.12
TGAGATCTCAGTATCGATTAGTGCTAG	0.0716
TTAGGTCTCGGCCTGGGTTAGTGCTAG	-0.464
TCAATTCTCTTTTCACTACTGTGCTAG	1.86

Sample 2 — technique: RNA Bind-n-Seq; molecule type: RNA; sample: in vitro; concentration: not given; relative to: input RNA pool; reading: higher = stronger binding
Target: RING finger protein unkempt homolog, zinc fingers 1-6, GST-SBP tag (UNK, Homo sapiens, UniProt Q9C0B0, residues 30-357)
UniProt Q9C0B0, sequence (30-357, looked up): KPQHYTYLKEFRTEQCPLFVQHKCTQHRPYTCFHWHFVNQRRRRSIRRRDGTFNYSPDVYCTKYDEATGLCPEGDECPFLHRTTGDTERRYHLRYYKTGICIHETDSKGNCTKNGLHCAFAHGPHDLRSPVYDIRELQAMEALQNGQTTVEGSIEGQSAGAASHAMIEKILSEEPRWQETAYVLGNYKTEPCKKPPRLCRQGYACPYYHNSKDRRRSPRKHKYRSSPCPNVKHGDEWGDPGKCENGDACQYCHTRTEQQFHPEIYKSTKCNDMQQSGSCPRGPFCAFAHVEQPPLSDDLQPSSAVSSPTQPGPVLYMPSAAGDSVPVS
Setting: RNA with constant flanks, human-mouse chimeric sites, ends assumed
Sequence	bound/input enrichment [ratio]
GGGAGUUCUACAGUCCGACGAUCGGACAUCUUGUCAGGAUUUAUGUUCCUGUGAAACAAGUGAACACUCUGAUACACUUCAUCUGCUUGUACAUUUAACUGAUAGAGAAAUGUAAAUAUGUUAAUCCAAGCAAUGUGUCACUUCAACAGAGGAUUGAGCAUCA	0.197
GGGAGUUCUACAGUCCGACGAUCCCACCAGGAUCCCAGAAACAUGACCCUUGCUGCCUACAAAGAGAAGAUGAAGGAGCUCCCGCUGGUGUCCUUGUUCUGCUCUUGCUUCCUGGCCGAUCCCCUGAAUAAGUCGUCCUACAACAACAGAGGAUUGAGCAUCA	0.157
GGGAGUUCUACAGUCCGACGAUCAGAGCCCAGGAUGUUGAUGCUACAAAUCCAAAUUAUGAAAUUAUGUGUAUGAUCAGAGACUUCAGAGGGAGCUUGGAUUAUAGACCACUAACAACAGCAGAUCCUAUUGAUGAACAUAGGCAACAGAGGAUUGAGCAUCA	0.681
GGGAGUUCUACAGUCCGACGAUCAGAGAAAUGAGAAAGAAUCUUACACAAGAAGAGAUGCAAAGAAUGUCUACUAGAGUCCUUUUGGCGACUCUUUCCAUUCCUAUUACUCCUGAGCGAACGGAUAUUGCUCGACUUCUGGAUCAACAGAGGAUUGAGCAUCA	0.302
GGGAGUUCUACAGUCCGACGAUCAUUCCGAUUAUGGACACCGGUGAAAACCCAGAGGUUCCCUUCCCCCGGGACAUGAUCGACUUAGAGGCCAAUUUUGAGAAGAUUGAAAAUGAACUGAAGGAAAUCAACACUAACCAGGAACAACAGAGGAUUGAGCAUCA	0.129
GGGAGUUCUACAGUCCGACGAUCAGAGCCCAGGAUGUUGAUGCUACAAAUCCAAAUUACGAAAUUAUGUGUAUGAUCAGAGACUUUAGAGGGAGCUUGGAUUAUAGACCACUAACAACAGCAGAUCCUAUUGAUGAACAUAGGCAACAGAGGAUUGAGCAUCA	1.09
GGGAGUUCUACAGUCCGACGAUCUAAGUUAUUUUGUACAGUAAGUUAUUUUCUUAACAUUUUUAUAUUGCCAUGUUUAUUUUGUUUGGGUAAUUUGGUUCAUUAAGUACAAAACCAAAUAAAUGAACAUCUUUUUCAGUAAUUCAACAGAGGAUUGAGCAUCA	4.04
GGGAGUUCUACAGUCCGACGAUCAAAGAGAAAGCUAAAACACUAAUAGAGAAGAGGAUUGGGCAAAGAGAUUUCAUAGAGAAACUAGGAUUUAUUAGCAAACAUGAGUUAUAUUCCAGAGCGUCUCAGAAACCCCAGCCAAACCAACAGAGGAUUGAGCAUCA	3.05

Sample 3 — technique: RNA Bind-n-Seq; molecule type: RNA; sample: in vitro; concentration: 200 nM; setting: whole 134-nt RNA, ends assumed; with: 150 mM KCl; relative to: input library; reading: higher = stronger binding
Target: Fragile X messenger ribonucleoprotein 1, C-terminal low-complexity region (Fmr1, Mus musculus, UniProt P35922)
Sequence	log2 enrichment
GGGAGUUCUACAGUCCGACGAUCACCAUGCAGUUGGGCAUCUUUGGGAAGUGGGGCAAGGGGGGGAUAGGGAGGGGGGUAACACUUUGGGAACAGGUGGUCCCAGGUCGUUUCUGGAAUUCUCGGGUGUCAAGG	0.893
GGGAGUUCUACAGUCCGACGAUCUAACUUUAGAGGAGGAUCUGAUGGAUAUGGCAGUGGACGUGGAUUUGGGGAUGGCUAUAAUGGGUAUGGAGGAGGACCUGGAGGGGGCAAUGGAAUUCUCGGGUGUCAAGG	0.143
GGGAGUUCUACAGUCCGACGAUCUCAAGUCCUGUGCUACACAUCGUAUGUACCGAAUCGGGAAAAAGGGAGGGAGGGAAAGUAUUAUGUUACGCCGUUCGGAUCUGCACUUCCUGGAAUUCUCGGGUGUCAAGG	1.04
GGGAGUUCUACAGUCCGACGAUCUCCUCAAGUCCUGUGCUACACAUCGUAUGUACCGAAUCGGGUGGUGGUGGGGAAAGUAUUAUGUUACGCCGUUCGGAUCUGCACUUCCAGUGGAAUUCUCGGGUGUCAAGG	0.618
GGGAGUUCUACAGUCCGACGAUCCCUGUGCUACACAUCGUAUGUACCGAAUCGGGGAAAAAAAGGGGUGGGGAAAAAAAGGGGAAAGUAUUAUGUUACGCCGUUCGGAUCUGCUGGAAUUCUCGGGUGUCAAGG	0.147
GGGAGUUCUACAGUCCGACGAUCAGUCCUGUGCUACACAUCGUAUGUACCGAAUCGGGAAAAAGGGGAAAAAGGAAAAAGGAAAGUAUUAUGUUACGCCGUUCGGAUCUGCACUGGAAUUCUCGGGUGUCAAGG	-0.268
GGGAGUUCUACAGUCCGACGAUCCCUGUGCUACACAUCGUAUGUACCGAAUCGGGGAAAAAAGGGAAAAAAGGGGAAAAAAGGGAAAGUAUUAUGUUACGCCGUUCGGAUCUGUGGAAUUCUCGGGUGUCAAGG	-0.453
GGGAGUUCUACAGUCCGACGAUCCAAGUCCUGUGCUACACAUCGUAUGUACCGAAUCGGAAAGGGGAAAGGGAAAGGGAAAGUAUUAUGUUACGCCGUUCGGAUCUGCACUUCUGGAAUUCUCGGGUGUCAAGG	0.325
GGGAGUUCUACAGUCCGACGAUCCCUGUGCUACACAUCGUAUGUACCGAAUCGGGUUUUUUUGGUUUUUUUGGUUUUUUUGGGAAAGUAUUAUGUUACGCCGUUCGGAUCUGCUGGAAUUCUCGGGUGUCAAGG	-0.663
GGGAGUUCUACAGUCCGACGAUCAAGUCCUGUGCUACACAUCGUAUGUACCGAAUCGGGGUUUGGGUUUGGGGUUUGGGAAAGUAUUAUGUUACGCCGUUCGGAUCUGCACUUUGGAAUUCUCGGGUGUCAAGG	0.738

Sample 4 — technique: protein-binding microarray; molecule type: hairpin DNA; sample: in vitro; concentration: not given; relative to: not given; reading: higher = stronger binding
Target: Homeobox protein Hox-C11, full length (HOXC11, Homo sapiens, UniProt O43248, residues 1-304)
UniProt O43248, sequence (whole entry, looked up): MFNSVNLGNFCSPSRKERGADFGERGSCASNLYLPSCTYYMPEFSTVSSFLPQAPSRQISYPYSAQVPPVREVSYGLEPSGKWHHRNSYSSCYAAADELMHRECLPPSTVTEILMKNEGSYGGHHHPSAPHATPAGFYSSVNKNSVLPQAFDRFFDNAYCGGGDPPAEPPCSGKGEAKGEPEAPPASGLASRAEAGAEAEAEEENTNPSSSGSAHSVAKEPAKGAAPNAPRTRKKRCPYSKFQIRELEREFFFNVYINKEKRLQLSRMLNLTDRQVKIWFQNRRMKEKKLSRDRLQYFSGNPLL
Setting: whole hairpin DNA, median over replicate spots
Sequence	median fluorescence [a.u.]
GAGGCCAGCGCGTTAAAGCCTCCTGGCTTTAACGCGCTGGCCTCACACTC	10400
GAGGCCAGGTCTTTAAAGCCTCCTGGCTTTAAAGACCTGGCCTCACACTC	7770
GAGGCCAGGTCGTATAAGCCTCCTGGCTTATACGACCTGGCCTCACACTC	9860
GAGGCCAGGTCCTAAAAGCCTCCTGGCTTTTAGGACCTGGCCTCACACTC (5mC at 12)	7970
GAGGCCAGGTCGTAAAAGCCTCCTGGCTTTTACGACCTGGCCTCACACTC (5mC at 33)	10500
GAGGCCCGGTCGTAAAAGCCTCCTGGCTTTTACGACCGGGCCTCACACTC	9970
GAGGCCAGGTCGTCAAAGCCTCCTGGCTTTGACGACCTGGCCTCACACTC (5mC at 14)	10200
GAGGCCAGGTCGTTACAGCCTCCTGGCTGTAACGACCTGGCCTCACACTC (5mC at 16)	9920
GAGGCCAGGTCGTAACGGCCTCCTGGCCGTTACGACCTGGCCTCACACTC (5mC at 28)	11900
GAGGCCACGTCGTTAAAGCCTCCTGGCTTTAACGACGTGGCCTCACACTC (5mC at 8 36)	9160
GAGGCCACGTCGTAAAAGCCTCCTGGCTTTTACGACGTGGCCTCACACTC (5mC at 36)	9610
GAGGCCAGGCCGTAAAAGCCTCCTGGCTTTTACGGCCTGGCCTCACACTC (5mC at 10)	9510
GAGGCCCGGTCGTAAAAGCCTCCTGGCTTTTACGACCGGGCCTCACACTC (5mC at 7)	10500
GAGGCCCGGTCGTTAAAGCCTCCTGGCTTTAACGACCGGGCCTCACACTC	10200
GAGGCCAGGACGTTAAAGCCTCCTGGCTTTAACGTCCTGGCCTCACACTC	9610
GAGGCCAGATCGTTAAAGCCTCCTGGCTTTAACGATCTGGCCTCACACTC	9780

Some of these lines once more (sample 2):
Sequence	bound/input enrichment [ratio]
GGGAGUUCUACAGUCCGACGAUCAUUCCGAUUAUGGACACCGGUGAAAACCCAGAGGUUCCCUUCCCCCGGGACAUGAUCGACUUAGAGGCCAAUUUUGAGAAGAUUGAAAAUGAACUGAAGGAAAUCAACACUAACCAGGAACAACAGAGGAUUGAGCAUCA	0.129
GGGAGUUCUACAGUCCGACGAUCAGAGCCCAGGAUGUUGAUGCUACAAAUCCAAAUUACGAAAUUAUGUGUAUGAUCAGAGACUUUAGAGGGAGCUUGGAUUAUAGACCACUAACAACAGCAGAUCCUAUUGAUGAACAUAGGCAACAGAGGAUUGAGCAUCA	1.09
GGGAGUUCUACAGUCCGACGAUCUAAGUUAUUUUGUACAGUAAGUUAUUUUCUUAACAUUUUUAUAUUGCCAUGUUUAUUUUGUUUGGGUAAUUUGGUUCAUUAAGUACAAAACCAAAUAAAUGAACAUCUUUUUCAGUAAUUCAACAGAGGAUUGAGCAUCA	4.04
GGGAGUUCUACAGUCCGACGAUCAAAGAGAAAGCUAAAACACUAAUAGAGAAGAGGAUUGGGCAAAGAGAUUUCAUAGAGAAACUAGGAUUUAUUAGCAAACAUGAGUUAUAUUCCAGAGCGUCUCAGAAACCCCAGCCAAACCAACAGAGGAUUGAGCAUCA	3.05
